# Experimental data pooled from the literature.
# Lines come from different studies, so protocols differ. Numbers after ± are the reported error.
# USP51: Ubiquitin carboxyl-terminal hydrolase 51 (USP51, Homo sapiens, UniProt Q70EK9)
# Adhesin FmlH lectin domain: Adhesin FmlH, lectin domain (Escherichia coli, UniProt Q1RBS0)
# MAL12: Alpha-glucosidase MAL12 (MAL12, Saccharomyces cerevisiae S288c, UniProt P53341)
# CAPN1: Calpain-1 catalytic subunit (CAPN1, Homo sapiens, UniProt P07384)
# PTGS1: Prostaglandin G/H synthase 1 (PTGS1, Ovis aries, UniProt P05979)
# ADRA2B: Alpha-2B adrenergic receptor (ADRA2B, Homo sapiens, UniProt P18089)
Structure (SMILES),target,test,test system,conditions,inhibition
COc1c(C2CC(=O)Nc3c2ncn3-c2cccc(C(F)(F)F)c2)cc2c(c1OC)OCO2 (stereo not drawn),USP51,"enzyme activity, inhibitor",,1 µM,8.4 ± 2.6%
O=[N+]([O-])c1ccc(S[C@@H]2O[C@H](CO)[C@H](O)[C@H](O)[C@H]2O)cc1,Adhesin FmlH lectin domain,"binding to desialylated mucin, ELISA competition",UPEC UTI89,"10 µM, with: desialylated bovine submaxillary mucin",17 ± 3.7%
O=c1ccc2ccc(O)c(Cn3ccnc3)c2o1,MAL12,inhibitor,,25 µM,< 0%
OC[C@H]1O[C@@H](Oc2ccccc2Cl)[C@H](O)[C@@H](O)[C@H]1O,Adhesin FmlH lectin domain,"binding to desialylated bovine submaxillary mucin, inhibitor, ELISA competition",UPEC UTI89,1 µM,8 ± 4%
C[C@H](NC(=O)[C@H](CC(=O)NCC(C)(C)C)NC(=O)C(=O)c1c[nH]c2ccccc12)C(=O)NCc1ccc(F)cc1F,CAPN1,"enzyme activity, inhibitor",,100 µM,-40%
COc1cc(C=C2SC(=NC(C)=O)NC2=O)cc(OC)c1OC(C)=O,USP51,"enzyme activity, inhibitor",,1 µM,23.6 ± 4.3%
O=C(N[C@@H](CCNC(=O)c1ccc([N+](=O)[O-])o1)c1nc2ccccc2[nH]1)c1ccc(-n2cnnc2)cc1,"STING1 (Homo sapiens, UniProt Q86WV6, H232R)","reporter gene, inhibitor, Lucia reporter",THP1-Dual,"concentration not given, wild-type STING, with: diABZI",inactive
COCC(=O)N1CCc2cc(-c3csc(NC(=O)c4cc(OC)cc(OC)c4)n3)ccc21,"Adra1b (Rattus norvegicus, UniProt P15823)",cell-free assay,,10 µM,13%
C=CCNC(=O)[C@H](CCc1ccccc1)NC(=O)[C@H](CC(=O)NCC(C)(C)C)NC(=O)CCc1ccccc1,CAPN1,"enzyme activity, inhibitor",,100 µM,32%
Nc1nnc(SCc2nc3ccccc3c(=O)[nH]2)s1,USP51,"enzyme activity, inhibitor",,1 µM,5.5 ± 1.1%
C/C=C/C(=O)Nc1ccc2nc(NCCCCCN(C)C)nc(NCCCCCCN(C)C)c2c1,"EZH2 (Homo sapiens, UniProt Q15910)","enzyme activity, inhibitor, radiometric",,50 µM,72%
Cc1ccc(-c2nn(-c3ccc(S(C)(=O)=O)cc3)cc2C=NN=c2[nH]c(-c3ccc([N+](=O)[O-])cc3)cs2)cc1,PTGS1,enzyme activity,,0.1 µM,11.6%
Cc1ccc(CNC(=O)[C@H](CCc2ccccc2)NC(=O)[C@H](CC(=O)NCC(C)(C)C)NC(=O)CCc2cccc(F)c2)cc1,CAPN1,"enzyme activity, inhibitor",,100 µM,22%
O=C1CO[C@H](CNC(=O)C2(c3ccc(Cl)cc3)CC2)CN1C1Cc2ccccc2C1,"CX3CR1 (Homo sapiens, UniProt P49238)","β-arrestin recruitment, antagonist",,1 µM,8%
CN(Cc1ccc(/C=C/C(=O)NO)cc1)CC12CC3CC(CC(C3)C1)C2,human ETA receptor,agonist radioligand binding,,0.05 µM,-8%
Oc1cc2c(cc1O)C(c1ccco1)NCC2 (stereo not drawn),MAL12,"enzyme activity, inhibitor",,"100 µM, DMSO solvent, with: pNPG substrate",58.4 ± 1.72%
CCOc1ccc(S(=O)(=O)Nc2ccc3c(c2)C(=O)Nc2ccccc2O3)cc1,USP51,"enzyme activity, inhibitor",,1 µM,57.6 ± 15.3%
CCn1cc(C(=O)O)c(=O)c2c(N)c(F)c(NC3CCCCC3)cc21,"PDK4 (Homo sapiens, UniProt Q16654)",kinase activity,,"0.1 µM, with: ATP at Km",-2.5%
C[Si](C)(C)C[C@H](CN)CC(=O)O,"High affinity choline transporter 1 (Rattus norvegicus, UniProt Q9JMD7)","ligand displacement, radioligand",,250 µM,-11%
CCOC(=O)c1cc(S(=O)(=O)Nc2cc(OC)c(OC)c(OC)c2)n[nH]1,USP51,"enzyme activity, inhibitor",,1 µM,23.3 ± 8.8%
CC(C)Cc1ccc(-c2nn(-c3ccc(S(C)(=O)=O)cc3)cc2C=NN=c2[nH]c(-c3ccc(Br)cc3)cs2)cc1,PTGS1,enzyme activity,,10 µM,68.6%
Cc1ccc(CNC(=O)C(CCc2ccccc2)NC(=O)C(NC(=O)c2ccc(OCc3ccc(C(C)(C)C)cc3)cc2)C(C)O)cc1 (stereo not drawn),CAPN1,"enzyme activity, inhibitor",,100 µM,5%
Oc1cc2c(cc1O)C(c1ccccc1)NCC2 (stereo not drawn),MAL12,"enzyme activity, inhibitor",,"100 µM, DMSO solvent, with: pNPG substrate",7.67 ± 5.42%
O=C1c2sc(-c3ccc(N4CCC(F)C4)nc3F)nc2CCN1c1cccnc1 (stereo not drawn),ADRA2B,"ligand displacement, radioligand",,1 µM,7%
N#Cc1ccccc1O[C@H]1O[C@H](CO)[C@H](O)[C@H](O)[C@H]1O,Adhesin FmlH lectin domain,"binding to desialylated mucin, ELISA competition",UPEC UTI89,100 µM,17.8 ± 6.3%
COc1cc([C@@H](O)[C@H](O)CO)ccc1O,MAL12,inhibitor,,"100 µg/mL, 0.4167 h, with: p-nitrophenyl glucoside substrate",35.1 ± 4.16%
OC[C@H]1O[C@@H](Oc2ccc3ccccc3c2)[C@H](O)[C@@H](O)[C@H]1O,Adhesin FmlH lectin domain,"binding to desialylated mucin, ELISA competition",UPEC UTI89,100 µM,78.8 ± 2.1%
CCC(=O)N(C)c1ccc(Cl)c(Cl)c1,"HTR5A (Homo sapiens, UniProt P47898)","ligand displacement, radioligand",,10 µM,< 10%
O=[N+]([O-])c1ccc(O[C@@H]2O[C@H](CO)[C@H](O)[C@H](O)[C@H]2O)cc1,Adhesin FmlH lectin domain,"binding to desialylated mucin, ELISA competition",UPEC UTI89,100 µM,78.1 ± 0.6%
O=C1c2sc(-c3ccc(N4CCC(CO)CC4)nc3F)nc2CCN1c1cccnc1,"PTGFR (Homo sapiens, UniProt P43088)","ligand displacement, radioligand",,1 µM,-1%
COc1cc(-c2cn(C)c(=O)c3cnccc23)cc(OC)c1CN(C)C,"Bromodomain-containing protein 3, BD2 (BRD3, Homo sapiens, UniProt Q15059)",,,1 µM,-2.07%
CC1Cc2ccccc2N1C(=O)CN1CCN(Cc2ccccc2)CC1 (stereo not drawn),"HTR1A (Homo sapiens, UniProt P08908)",radioligand binding,,"concentration not given, with: [3H]8-OH-DPAT",55.8%
Cc1ccc(-c2nn(-c3ccc(S(C)(=O)=O)cc3)cc2C=NN=c2[nH]c(-c3ccc(Br)cc3)cs2)cc1 (mixture of isomers),PTGS1,enzyme activity,,10 µM,57.7%
CN(C)C/C=C/C(=O)Nc1ccc2nc(NCCCCCN(C)C)nc(NCCCCCCN(C)C)c2c1,"KMT2C (Homo sapiens, UniProt Q8NEZ4)","enzyme activity, inhibitor, radiometric",,50 µM,35%
OC[C@H]1O[C@H](Oc2cccc3ccccc23)[C@H](O)[C@@H](O)[C@H]1O,Adhesin FmlH lectin domain,"binding to desialylated mucin, ELISA competition",UPEC UTI89,100 µM,28.1 ± 3.4%
C[Si]1(C[C@H](CN)CC(=O)O)CCCC1,"GALR1 (Homo sapiens, UniProt P47211)","enzyme activity, inhibitor",,70 µM,3%
CN1CCN(Cc2ccc(-c3ccc(CO[C@H]4CCC[C@@H]4NC(=O)c4cc(-c5cnn(C)c5)cnc4N)cc3)cc2)CC1,"PEAK1 (Homo sapiens, UniProt Q9H792)","enzyme activity, inhibitor",,0.1 µM,6%
OC[C@H]1O[C@@H](SCCc2ccccc2)[C@H](O)[C@@H](O)[C@H]1O,Adhesin FmlH lectin domain,"binding to desialylated mucin, ELISA competition",UPEC UTI89,100 µM,49.8 ± 2.5%
COc1ccc(C2Nc3ccccc3-n3c(-c4ccccc4C)c4c(=O)n(C)c(=O)n(C)c4c32)cc1O (stereo not drawn),USP51,"enzyme activity, inhibitor",,1 µM,3.6 ± 1%
CS(=O)(=O)c1ccc(-n2cc(C=NN=c3[nH]c(-c4ccc(Br)cc4)cs3)c(-c3ccc(Br)cc3)n2)cc1,PTGS1,enzyme activity,,0.1 µM,20.5%
NC(=O)c1cccc(-c2cnn3ccc(Nc4ccc(N5CCOCC5)cc4)nc23)c1,"crk3, with CYC6 (Leishmania mexicana, UniProt O15851)",IMAP fluorescence polarisation,,"30 µM, with L. major CYC6",93%
Cc1ccc(O[C@@H]2O[C@H](CO)[C@H](O)[C@H](O)[C@H]2O)cc1,Adhesin FmlH lectin domain,"binding to desialylated mucin, ELISA competition",UPEC UTI89,100 µM,85.8 ± 0.7%
CN1CC[C@@H](COc2cnc(C#N)cc2-c2ccn3nc(NC(=O)C4CC4)cc3c2)C1,"TAF1L (Homo sapiens, UniProt Q8IZX4)","enzyme activity, inhibitor",,1 µM,3%
CS(=O)(=O)c1ccc(-n2cc(C=NN=c3[nH]c(-c4ccc([N+](=O)[O-])cc4)cs3)c(-c3ccc([N+](=O)[O-])cc3)n2)cc1,PTGS1,enzyme activity,,1 µM,24.1%
C=CC(=O)Nc1cccc(-c2cnc3[nH]cc(C(=O)NC(C)(C)C)c3n2)c1,CK2,kinase activity,,0.1 µM,2%
Brc1ccccc1-c1nnc(CSc2nnnn2-c2ccccc2)o1,ADRA2B,"ligand displacement, radioligand",,10 µM,2%
CS(=O)(=O)c1ccc(-n2cc(C=NN=c3[nH]c(-c4ccc(Br)cc4)cs3)c(-c3ccc([N+](=O)[O-])cc3)n2)cc1 (mixture of isomers),PTGS1,enzyme activity,,1 µM,18.5%
Cn1c(=O)c2c(nc(Oc3ccc(Oc4ncc(Cl)cc4Cl)cc3)n2Cc2cccc(Cl)c2)n(C)c1=O,USP51,"enzyme activity, inhibitor",,1 µM,1.9 ± 0.6%

# Some of these lines once more:
Structure (SMILES),target,test,test system,conditions,inhibition
Cn1c(=O)c2c(nc(Oc3ccc(Oc4ncc(Cl)cc4Cl)cc3)n2Cc2cccc(Cl)c2)n(C)c1=O,USP51,"enzyme activity, inhibitor",,1 µM,1.9 ± 0.6%
C=CCNC(=O)[C@H](CCc1ccccc1)NC(=O)[C@H](CC(=O)NCC(C)(C)C)NC(=O)CCc1ccccc1,CAPN1,"enzyme activity, inhibitor",,100 µM,32%
COc1c(C2CC(=O)Nc3c2ncn3-c2cccc(C(F)(F)F)c2)cc2c(c1OC)OCO2 (stereo not drawn),USP51,"enzyme activity, inhibitor",,1 µM,8.4 ± 2.6%
